# Measured values pooled from the literature.
# Each numbered part is a random draw from the data of one study; scales do not carry over between parts. Substitutions count along the parent as printed.

# Series 1 — method: RNA Bind-n-Seq; molecule type: RNA; medium: in vitro; tested at: 200 nM; notes: whole 134-nt RNA, ends assumed; together with: 150 mM KCl; relative to: input library; reading: higher = stronger binding
# Target: Ras GTPase-activating protein-binding protein 1, full length (G3BP1, Homo sapiens, UniProt Q13283)
# Sequence of UniProt Q13283 (whole entry, looked up): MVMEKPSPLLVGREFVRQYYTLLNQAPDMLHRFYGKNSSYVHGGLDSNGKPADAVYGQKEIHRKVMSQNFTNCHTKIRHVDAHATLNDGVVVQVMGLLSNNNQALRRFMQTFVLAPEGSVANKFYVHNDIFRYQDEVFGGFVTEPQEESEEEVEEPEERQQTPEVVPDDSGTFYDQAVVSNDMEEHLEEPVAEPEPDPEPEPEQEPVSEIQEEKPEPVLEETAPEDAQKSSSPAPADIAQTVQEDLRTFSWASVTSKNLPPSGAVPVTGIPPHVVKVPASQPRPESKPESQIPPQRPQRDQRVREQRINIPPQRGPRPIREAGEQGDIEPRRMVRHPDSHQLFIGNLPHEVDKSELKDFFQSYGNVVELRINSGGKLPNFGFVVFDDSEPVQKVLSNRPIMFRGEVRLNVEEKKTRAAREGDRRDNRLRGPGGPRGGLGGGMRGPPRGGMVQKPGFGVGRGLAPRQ
# All sequences stand within: GGGAGUUCUACAGUCCGACGAUC … UGGAAUUCUCGGGUGUCAAGG
Strand,log2 enrichment
UCAAGUCCUGUGCUACACAUCGUAUGUACCGAAUCGGUUUGGGUUUGGGUUUGGAAAGUAUUAUGUUACGCCGUUCGGAUCUGCACUUCC,-0.671
CAAGUCCUGUGCUACACAUCGUAUGUACCGAAUCGGCCCGGGGCCCGGGGCCCGGAAAGUAUUAUGUUACGCCGUUCGGAUCUGCACUUC,-0.854
CAAGUCCUGUGCUACACAUCGUAUGUACCGAAUCGGGGUUUGGGGUGGGGUGGGGAAAGUAUUAUGUUACGCCGUUCGGAUCUGCACUUC,1.12
GUCCUGUGCUACACAUCGUAUGUACCGAAUCGGGCCCCCGGCCCCCGGGCCCCCGGGGAAAGUAUUAUGUUACGCCGUUCGGAUCUGCAC,-0.675
CCUGUGCUACACAUCGUAUGUACCGAAUCGGGGUUUUUGGGGUUUUUUUGGGGAAAGGGGAAAGUAUUAUGUUACGCCGUUCGGAUCUGC,0.416
CCUGUGCUACACAUCGUAUGUACCGAAUCGGGAAAAAAAGGGUUUUUUUGGGAAAAAGGGAAAGUAUUAUGUUACGCCGUUCGGAUCUGC,-1.08
AGUCCUGUGCUACACAUCGUAUGUACCGAAUCGGGGUUUUGGUUUUGGGGUUUUGGGGAAAGUAUUAUGUUACGCCGUUCGGAUCUGCAC,-0.187
UGGCCCUGGUGGCAUGCGGGGAGGAAGAGGUGGCCUCAUGGAUCGUGGUGGUCCCGGUGGAAUGUUCAGAGGUGGCCGUGGUGGGGACAG,0.313
CACAGACAACACGCACCCACACAGACUCAGAGGGAAGGGGUUGGGAUGGGGACAGGGUGCACAGCAGGGCGGGGUAGGACCCCAGCCCCU,2
UCAAGUCCUGUGCUACACAUCGUAUGUACCGAAUCGGGAGGGUUUGGGAAAGGGAAAGUAUUAUGUUACGCCGUUCGGAUCUGCACUUCC,1.04
UGCUGUGUCACCGGGAACGCAAAGGCUGGGAAGAAGGCCCUUCUCAAAAUGGACUGGUGUUGCAGGGUGAGAAGCUGCCCCCUGACUUCA,-0.487
GCAGGAAGUAAUAACAAAUGGAAAUGCUUCGGAUAGUGGCAGGGGUGGGGGUUGCUAAGGAAAGGGUGGGAUGGGAGUGGGUAAAGAGUU,1.18
AGAUGAACAAGAGAACUGGGCAACCCAUGAUCCACAUCUACCUGGACAAGGAAACAGGAAAGCCCAAAGGCGAUGCCACAGUGUCCUAUG,-1.5
UGGCCCUGGUGGCAUGCGGGUAGGAAGAGGUGGCCUCAUGGAUCGUGGUGGUCCCGGUGGAAUGUUCAGAGGUGGCCGUGGUGGAGACAG,0.205

# Series 2 — method: RNA Bind-n-Seq; molecule type: RNA; medium: in vitro; tested at: 365 nM; relative to: no-protein control; reading: higher = stronger binding
# Target: RNA binding protein fox-1 homolog 2, RRM domain, GST-SBP tag (RBFOX2, Homo sapiens, UniProt O43251-10, residues 100-194)
# Notes: natural RNA segment, single round, ends assumed
# All sequences stand within: GGGAGUUCUACAGUCCGACGAUC … UGGAAUUCUCGGGUGCCAA
# Residues (chain): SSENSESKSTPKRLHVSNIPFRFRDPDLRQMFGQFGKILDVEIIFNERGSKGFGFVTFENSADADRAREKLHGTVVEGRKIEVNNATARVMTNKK
Strand,RBNS enrichment (R)
AAGUUACUCUGAGUUUCUUGGCAGAGUUUUUGACAGCUGUUGCUUUCAAUGGAUUCCAUUCCUGUAUUCCUUAUGGGAGGUUGUUUUUAAAAUAGACUACUGCGAUUGAA,0.342
CCCAAAGAAGCAAGCCUUAGAACCGAGCAGGUGAAUCUUAGAGAGUCAGCCAAGGACAGUGCAGAGUCACGGGUUGGGAGGUAUGUGGGCUAGGGUAUGUGGUUUCCUCA,1.19
AUGGCCCAGUAUCCUUGGUUGUGGAUAGGGUCAUCCCUGGCUCCUCACCCAGCACCCAGCUUAACCCUGCCACCCCACACUCCUGGGAGCACUGGGCUGAGGGGGUCUCA,0.39
AUGACGCCACUCUGAAGAGUAGGUGAGCGCUUUGCAGUCACAGAAGGUGGCAUCUGACUGCGGCUCAUACAGGUCACCCUGAAGGGCCACGUGCUUUUAGCAGUUGGCUG,0.288
GGCUAAAUCCUGUGGAAUUGUUUUUAAUGACUGAAUUUAACCAUUUUCAUAGUUGGUUCCUGGAGGUGUGCCAAGUGCCCGCUUGCCUCUUCUAGACCCACAGCUUCUUG,0.317
AUUGGGACCCCAUACCGUUAGCCCUUGUAUGUAUACCAACACUGCCAAAGUAAAACAUUAGGUCAGGCAUGGUGGCUCAGGCCUGUAAUCCCAGCAUUUUGGGAGGCUGA,0.562
UUGUUUAAUUACAGUCGGAAAGACUUAAGGUUUUUCUUUUAAUUUAAUUUAUUCCCUGACAUUGCUGGUGACACUGGGAAGGGAACAAGCCACAGGGAUGAGGUGAAGCC,0.511
AGCCAUUAGAAAGAUUGUUAAUCCUAUGAACUCCCUUUUGUAGGAGAGAAAGGGCCAAUCUGUAGGGGUAGCCCUGUCCAGGUAAAGUUGUUUUCAGCCUCAUGUCUACU,0.301
CCACUGCCCCUCCCUGCCAUCUUCUGCUACUUAGCUUGGGAGUUGAUGGUUGCAGAAGCCACACAGGGUUAAAGUAAAUUCUGUCUUUGCCCACCAGGGGAUCAAACCCC,0.369
AAAACUGGACUUGAUUCUACUGGUAUGCAAAACAGGCAUGCUAGUAAGCAGUCAGUCGUGGCUCAGAACUUAACCCCAUAGCUCAGAGGAAUGCUUUUAGCAGAAAACAG,0.383
CUGCAAGGCCCGCUUUUCAGGGACCAGUCCACCACCAUCUCCUCCACGUUGAGUGAAGCUCAUCCCAAGCAAGGAGCCCCAGUCUCCCGAGCGGGUAGGAGAGUUUCUUG,0.367
AAAUUGUCCUUUUGAUACCAUCAUCUUGUUUUCUUUUUGUAGGUAUAAAUAAAAACACUGUUGACAAAAGGUGUGAGCUUUUAUUGCUUAAUUCUCUGAAUAAUUCAACG,0.368

# Series 3 — method: protein binding microarray; molecule type: double-stranded DNA, one strand shown; medium: in vitro; tested at: not given; relative to: not given; reading: higher = stronger binding
# Target: Histone acetyltransferase KAT6A, winged helix 1, GST fusion (KAT6A, Homo sapiens, UniProt Q92794, residues 1-85)
# Notes: 8-mer, flanks averaged, mean of 2 arrays, mostly near background
# Target sequence (chain): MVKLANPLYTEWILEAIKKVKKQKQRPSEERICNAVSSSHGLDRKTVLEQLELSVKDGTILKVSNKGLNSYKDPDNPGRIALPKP
Strand,E-score
CAAGGACG,0.107
TAATATGA,-0.00236
AATAGCTA,-0.134
ATCTCATG,-0.0825
CGGTTCTC,0.0739
GAGACTGC,0.116
GCAATTTA,-0.0595
ACGGGAGG,0.277
AATATACC,-0.135
AAAGCGTA,0.235
AAAACTAA,-0.153
CAAGGGCG,0.233
AAATATCT,-0.318
ACGAGCCA,-0.186

# Series 4 — target: CCND3, cyclin fold, Cln2 fusion (human); method: yeast growth competition, sequencing; medium: yeast; notes: weak parent motif; relative to: not given; reading: higher = stronger binding
# Starting sequence: ORC1 docking peptide (human); PRARKRLELGNLG; partner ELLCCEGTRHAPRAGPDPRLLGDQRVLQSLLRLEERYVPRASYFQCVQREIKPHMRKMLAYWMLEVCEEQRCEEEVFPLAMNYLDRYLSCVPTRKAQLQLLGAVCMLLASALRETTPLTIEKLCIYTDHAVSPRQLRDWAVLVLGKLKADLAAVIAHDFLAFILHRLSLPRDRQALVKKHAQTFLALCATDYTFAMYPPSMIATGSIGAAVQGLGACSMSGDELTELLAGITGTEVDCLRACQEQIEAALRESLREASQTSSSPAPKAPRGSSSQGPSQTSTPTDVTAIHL
Substitution,normalised enrichment score
PRARKRLSLGNLG [E8S],0.128
PEARKRLELGNLG [R2E],0.188
PRAVKRLELGNLG [R4V],0.132
PRARKRLELGNLK [G13K],0.204
PRARKRLELSNLG [G10S],0.0273
PTARKRLELGNLG [R2T],0.206
PRARKRLELANLG [G10A],0.102
PRARKRIELGNLG [L7I],0.13
WRARKRLELGNLG [P1W],0.19
PRHRKRLELGNLG [A3H],0.165
PRAEKRLELGNLG [R4E],0.115
PRARKRLRLGNLG [E8R],0.0971
RRARKRLELGNLG [P1R],0.158
PRARKRVELGNLG [L7V],0.0162
PRARKRLELCNLG [G10C],0.135
PRAQKRLELGNLG [R4Q],0.103
PIARKRLELGNLG [R2I],0.129
PRARKRLELVNLG [G10V],0.0655
PRARKRLEFGNLG [L9F],0.302
PRARKRDELGNLG [L7D],0.148
PRARKRLELMNLG [G10M],0.148
PRWRKRLELGNLG [A3W],0.115
PRARKRLELGYLG [N11Y],0.256
PRARKRLELRNLG [G10R],0.11
PRALKRLELGNLG [R4L],0.141

# For quick reference, copied from above (series 4):
Substitution,normalised enrichment score
PRALKRLELGNLG [R4L],0.141
PRARKRLELGNLK [G13K],0.204
PRARKRLSLGNLG [E8S],0.128
PIARKRLELGNLG [R2I],0.129
PRHRKRLELGNLG [A3H],0.165
PRARKRLELCNLG [G10C],0.135
PRWRKRLELGNLG [A3W],0.115
PRARKRLELGYLG [N11Y],0.256
PRARKRLELVNLG [G10V],0.0655
